Literature values as cited in several papers.
Lines come from different studies, so protocols differ. ± gives the spread as reported.
UniProt Q5S007, sequence (whole entry, looked up): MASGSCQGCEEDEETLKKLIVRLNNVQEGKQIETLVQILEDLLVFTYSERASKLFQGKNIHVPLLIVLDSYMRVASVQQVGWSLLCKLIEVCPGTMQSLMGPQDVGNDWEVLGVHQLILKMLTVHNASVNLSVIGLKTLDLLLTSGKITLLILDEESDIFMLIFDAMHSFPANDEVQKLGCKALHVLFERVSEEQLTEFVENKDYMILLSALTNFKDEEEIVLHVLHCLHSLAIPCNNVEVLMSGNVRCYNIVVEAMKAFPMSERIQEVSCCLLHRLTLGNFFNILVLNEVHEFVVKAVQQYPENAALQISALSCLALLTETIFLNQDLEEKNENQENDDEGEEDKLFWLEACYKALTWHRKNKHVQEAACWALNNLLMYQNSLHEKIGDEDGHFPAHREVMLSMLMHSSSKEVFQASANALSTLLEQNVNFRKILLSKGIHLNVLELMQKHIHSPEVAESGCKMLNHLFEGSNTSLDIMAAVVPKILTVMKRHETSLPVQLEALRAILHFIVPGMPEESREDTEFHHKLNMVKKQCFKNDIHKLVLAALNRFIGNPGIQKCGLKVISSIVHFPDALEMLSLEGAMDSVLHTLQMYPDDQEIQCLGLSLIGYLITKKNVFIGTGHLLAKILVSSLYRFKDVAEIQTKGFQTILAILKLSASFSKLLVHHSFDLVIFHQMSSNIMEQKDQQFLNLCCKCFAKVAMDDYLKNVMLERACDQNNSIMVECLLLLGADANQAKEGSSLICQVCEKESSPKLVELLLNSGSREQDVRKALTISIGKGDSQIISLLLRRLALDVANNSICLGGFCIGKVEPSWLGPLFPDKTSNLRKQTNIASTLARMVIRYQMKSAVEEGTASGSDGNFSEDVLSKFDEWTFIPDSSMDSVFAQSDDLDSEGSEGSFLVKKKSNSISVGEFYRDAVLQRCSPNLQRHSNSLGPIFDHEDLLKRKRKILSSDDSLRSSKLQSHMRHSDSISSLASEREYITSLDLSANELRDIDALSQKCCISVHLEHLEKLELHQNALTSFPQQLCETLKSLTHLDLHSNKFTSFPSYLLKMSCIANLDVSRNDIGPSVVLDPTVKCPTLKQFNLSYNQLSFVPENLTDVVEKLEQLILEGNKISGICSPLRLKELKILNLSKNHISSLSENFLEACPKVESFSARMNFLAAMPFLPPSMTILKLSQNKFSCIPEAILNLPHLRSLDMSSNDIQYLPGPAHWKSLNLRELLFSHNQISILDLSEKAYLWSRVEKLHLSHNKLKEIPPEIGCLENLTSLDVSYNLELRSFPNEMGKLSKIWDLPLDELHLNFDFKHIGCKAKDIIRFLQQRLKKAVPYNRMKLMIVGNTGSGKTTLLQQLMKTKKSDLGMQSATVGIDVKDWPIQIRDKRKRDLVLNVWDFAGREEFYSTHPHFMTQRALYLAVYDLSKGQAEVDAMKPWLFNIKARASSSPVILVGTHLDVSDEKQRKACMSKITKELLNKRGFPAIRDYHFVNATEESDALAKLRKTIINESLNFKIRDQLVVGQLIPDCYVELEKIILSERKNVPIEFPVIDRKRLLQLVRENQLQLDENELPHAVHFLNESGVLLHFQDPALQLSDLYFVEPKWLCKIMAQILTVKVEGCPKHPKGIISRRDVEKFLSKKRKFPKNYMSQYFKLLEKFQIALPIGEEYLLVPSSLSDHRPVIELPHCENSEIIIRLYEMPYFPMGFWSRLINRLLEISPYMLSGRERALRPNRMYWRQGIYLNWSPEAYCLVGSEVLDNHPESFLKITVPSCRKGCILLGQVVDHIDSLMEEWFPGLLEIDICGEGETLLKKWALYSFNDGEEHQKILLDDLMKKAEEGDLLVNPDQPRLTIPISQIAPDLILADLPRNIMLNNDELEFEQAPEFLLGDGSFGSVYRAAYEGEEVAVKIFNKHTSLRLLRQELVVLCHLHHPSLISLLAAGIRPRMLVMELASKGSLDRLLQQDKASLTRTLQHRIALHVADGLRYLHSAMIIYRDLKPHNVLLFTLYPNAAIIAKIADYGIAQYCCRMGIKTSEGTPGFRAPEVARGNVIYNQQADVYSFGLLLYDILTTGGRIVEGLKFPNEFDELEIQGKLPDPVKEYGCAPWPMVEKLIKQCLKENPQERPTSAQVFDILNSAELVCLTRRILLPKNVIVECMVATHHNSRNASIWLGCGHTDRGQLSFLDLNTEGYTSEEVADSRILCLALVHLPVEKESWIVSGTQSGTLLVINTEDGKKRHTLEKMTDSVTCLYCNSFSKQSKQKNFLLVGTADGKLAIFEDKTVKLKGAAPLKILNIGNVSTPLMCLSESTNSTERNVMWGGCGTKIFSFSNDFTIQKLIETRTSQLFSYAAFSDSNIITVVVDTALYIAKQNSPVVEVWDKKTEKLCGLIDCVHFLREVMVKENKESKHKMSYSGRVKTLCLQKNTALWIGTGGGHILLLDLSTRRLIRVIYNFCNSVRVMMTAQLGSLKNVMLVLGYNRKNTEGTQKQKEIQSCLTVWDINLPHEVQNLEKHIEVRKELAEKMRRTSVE

| SMILES | target or system | assay | system | setting | how to read | quantity | result |
| --- | --- | --- | --- | --- | --- | --- | --- |
| O=C(c1cc(Cc2n[nH]c(=O)c3ccccc23)ccc1F)N1CCN(C(=O)C2CC2)CC1 | – | – | human | oral tablet, 200 mg twice daily, multiple dose | – | Tmax | 1.5 h |
| O=C(CCCCCCC(=O)Nc1ccccc1)NO | – | – | human | oral, dose not given | – | Tmax | 1.78 h |
| CCN(CC)Cc1ccc2cc(COC(=O)Nc3ccc(C(=O)NO)cc3)ccc2c1 | – | – | healthy male humans | oral, 100 mg | – | Tmax | 2.1 h |
| Nc1cc(C(F)(F)F)c(-c2nc(N3CCOCC3)nc(N3CCOCC3)n2)cn1 | Leucine-rich repeat serine/threonine-protein kinase 2 (LRRK2, Homo sapiens, UniProt Q5S007) | enzyme activity | – | 10 µM | baseline: untreated | remaining activity | 91% |
| C[C@H]1CO[C@@H]2Cn3cc(C(=O)NCc4ccc(F)cc4F)c(=O)c(O)c3C(=O)N12 | – | – | human | oral tablet, median fasted | – | Tmax | 2.5 h ours |
| CCN1CCN(Cc2ccc(Nc3ncc(F)c(-c4cc(F)c5nc(C)n(C(C)C)c5c4)n3)nc2)CC1 | – | – | human | range over 50 to 275 mg | – | Tmax | 4 to 6 h |
| O=C(O)c1cc(O)c(O)c(O)c1 | – | – | human | oral, 50 mg | – | Tmax | 1.6 h |
| C#C[C@]1(O)CC[C@H]2[C@@H]3CCc4cc(O)ccc4[C@H]3CC[C@@]21C | – | – | human, fed | 0.025 mg multiple doses, median | – | Tmax | 2 h |
| CCN1CCN(Cc2ccc(Nc3ncc(F)c(-c4cc(F)c5nc(C)n(C(C)C)c5c4)n3)nc2)CC1 | – | – | human | 200 mg twice daily, multiple dose, tablet | – | Tmax | 3.95 h |
| Cc1ccccc1CN1C(=O)C2=C(CCN(Cc3ccccc3)C2)N2CCN=C12 | – | – | human | oral, 625 mg, high-fat meal | – | Tmax | 2.25 h |
| COc1cc2c(Oc3ccc4[nH]c(C)cc4c3F)ccnc2cc1OCC1(N)CC1 | – | – | human | 10 mg single dose | – | Tmax | 6 ± 4.4 h |
| CNC(=O)c1c(C)oc2cc(Oc3ncnc4cc(OC)c(OC)cc34)ccc12 | – | – | human | oral, dose not given | – | Tmax | ~2 h |
| NC(=S)NN=Cc1ncccc1N | – | – | human, serum | intravenous infusion, 2 h infusion | – | Tmax | 1 to 2 h |
| CNCc1cc(-c2ccccc2F)n(S(=O)(=O)c2cccnc2)c1 | – | – | human, plasma | 40 mg multiple dose, observed clinical data | – | Tmax | 1.5 h |
| Cc1cccc(F)c1N1CCC(N2Cc3cn(CC(C)(F)F)nc3N(Cc3ccccc3C(F)(F)F)C2=O)CC1 | – | – | human | range over 0.5-200 mg, single dose, fed | – | Tmax | 2.5 to 3.5 h |
| Cc1cc(C)c(CNC(=O)c2cc(Cl)c3c(c2C)O[C@@](C)([C@H]2CC[C@H](N(C)C)CC2)O3)c(=O)[nH]1 | – | – | human | oral, 200 mg single dose, median | – | Tmax | 4.5 h |
| O=C1[C@H](CC[C@H](O)c2ccc(F)cc2)[C@@H](c2ccc(O)cc2)N1c1ccc(F)cc1 | – | – | human | oral, 20 mg, given alone, nearest sampling time | – | Tmax | ~5 h |
| Cc1cc2c(s1)Nc1ccccc1N=C2N1CCN(C)CC1 | – | – | human | oral, 10 mg, day 1 | – | Tmax | 5 h |
| COCCc1ccc(OCC(O)CNC(C)C)cc1 (stereo not drawn) | – | – | human, fasted | 200 mg single dose, median | – | Tmax | 8.94 h |
| Cc1cc(C)c(CNC(=O)c2cc(Cl)c3c(c2C)O[C@@](C)([C@H]2CC[C@H](N(C)C)CC2)O3)c(=O)[nH]1 | – | – | human non-Hodgkin lymphoma patients | oral, 150 to 300 mg once daily | – | Tmax | 2 to 4 h |
| CNC(=O)c1cc(Oc2ccc(NC(=O)Nc3ccc(Cl)c(C(F)(F)F)c3)cc2)ccn1 | – | – | human | product characteristics summary | – | Tmax | ~3 h |

A few entries again:
| SMILES | target or system | assay | system | setting | how to read | quantity | result |
| --- | --- | --- | --- | --- | --- | --- | --- |
| Cc1ccccc1CN1C(=O)C2=C(CCN(Cc3ccccc3)C2)N2CCN=C12 | – | – | human | oral, 625 mg, high-fat meal | – | Tmax | 2.25 h |
| COc1cc2c(Oc3ccc4[nH]c(C)cc4c3F)ccnc2cc1OCC1(N)CC1 | – | – | human | 10 mg single dose | – | Tmax | 6 ± 4.4 h |
| CNC(=O)c1c(C)oc2cc(Oc3ncnc4cc(OC)c(OC)cc34)ccc12 | – | – | human | oral, dose not given | – | Tmax | ~2 h |
